# Published values gathered from unrelated publications.
# Each numbered part is a random draw from the data of one study; scales do not carry over between parts. Positions count from the first letter of the parent shown.

# Study 1
# Target: Fragile X messenger ribonucleoprotein 1, C-terminal low-complexity region (Fmr1, Mus musculus, UniProt P35922)
# Method: RNA Bind-n-Seq
# Molecule type: RNA
# Matrix: in vitro
# Concentration: 200 nM
# Setting: whole 134-nt RNA, ends assumed
# Together with: 150 mM LiCl
# Reference: input library
# Direction: higher = stronger binding
# Each molecule: 7-deaza-guanosine replaces G
# All sequences stand within: GGGAGUUCUACAGUCCGACGAUC … UGGAAUUCUCGGGUGUCAAGG
Sequence,log2 enrichment
UCUCCCAUCAAAGGACGUGCACAGCCUUAUGAUCCCAAUUUUUACGAUGAAACCUAUGAUUAUGGUGGUUUUACAAUGAUGUUUGAUGAC,0.928
ACCAUGCAGGUGGGCAUCUUUGGGAAGUGGGGCAAGGGGGGGAUAGGGAGGGGGGUAACACUUUGGGAACAGGUGGCCCCAGGUCGUUUC,1.55
UGGGAGGUGGAUUUUGUUUAUUUUUUUAGCUCAUUUCCAGGGGUGGAAAUUUUUUUUUAAUAUGUGUCAUGAAUAAAGUUGUUUUUGAAA,0.391
CAAGUCCUGUGCUACACAUCGUAUGUACCGAAUCGGGUUUGGGUUUGGGUUUGGGAAAGUAUUAUGUUACGCCGUUCGGAUCUGCACUUC,-1.22
AAGUCCUGUGCUACACAUCGUAUGUACCGAAUCGGGGUUUUUGGGGAGGGGUGGGGAAAGUAUUAUGUUACGCCGUUCGGAUCUGCACUU,-1.32
CUCAAGUCCUGUGCUACACAUCGUAUGUACCGAAUCGGGAGGGUGGGAAAGGGAAAGUAUUAUGUUACGCCGUUCGGAUCUGCACUUCCA,-0.669

# Study 2
# Target: Histone acetyltransferase KAT6A, winged helix 2, GST fusion (KAT6A, Homo sapiens, UniProt Q92794, residues 85-181)
# Method: protein binding microarray
# Molecule type: double-stranded DNA, one strand shown
# Matrix: in vitro
# Concentration: not given
# Setting: 8-mer, flanks averaged, mean of 2 arrays, mostly near background
# Reference: not given
# Direction: higher = stronger binding
# Target sequence (chain): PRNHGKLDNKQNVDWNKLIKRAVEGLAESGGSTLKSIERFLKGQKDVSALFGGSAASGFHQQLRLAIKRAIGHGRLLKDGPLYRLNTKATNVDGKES
Sequence,E-score
ATCAGAGA,0.00449
ATCTTGTC,0.0119
CCAACTCG,0.0315
ACTTGGAC,0.1
ACAGGAGG,-0.14
GAATTCAA,0.0498
CCTACTAC,-0.127
CGTGCTGC,0.111
CCGCTGCG,0.0966
CTATGAGC,-0.0989
CGTTCCAA,-0.0345

# Study 3
# Target: ABI1, truncated, D143A, DHFR fusion (Arabidopsis thaliana)
# Method: DHFR PCA, deep sequencing
# Matrix: yeast
# Setting: methotrexate growth selection, single substitutions
# Together with: (+)-ABA 4.8 µM
# Reference: wild-type fitted maximum
# Direction: higher = stronger binding
# Starting sequence: PYL1, truncated, DHFR fusion (Arabidopsis thaliana); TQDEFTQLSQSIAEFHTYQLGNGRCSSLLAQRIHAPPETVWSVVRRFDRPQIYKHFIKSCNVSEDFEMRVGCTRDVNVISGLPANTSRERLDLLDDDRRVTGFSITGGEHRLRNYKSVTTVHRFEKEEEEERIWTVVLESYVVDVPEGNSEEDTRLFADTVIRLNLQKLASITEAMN; partner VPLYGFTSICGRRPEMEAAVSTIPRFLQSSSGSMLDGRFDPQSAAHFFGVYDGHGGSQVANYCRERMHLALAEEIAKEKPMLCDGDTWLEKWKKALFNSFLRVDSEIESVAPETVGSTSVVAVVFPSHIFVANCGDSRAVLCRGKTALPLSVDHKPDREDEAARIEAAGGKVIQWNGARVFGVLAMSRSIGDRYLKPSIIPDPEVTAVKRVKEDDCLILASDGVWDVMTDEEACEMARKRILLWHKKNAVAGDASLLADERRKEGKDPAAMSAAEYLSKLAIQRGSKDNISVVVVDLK
Change,relative binding score [%]
R32S,57.3
E38Y,11.6
V137E,7.27
G107A,42.5
L29E,-3.13
N61M,69.9
L164T,89.2
V78D,-0.0182
S59F,19.9
N61T,79.4
V40N,-17
H122G,0.523

# Study 4
# Target: Sal-like protein 4, full length isoform A (SALL4, Homo sapiens, UniProt Q9UJQ4, residues 1-1053)
# Chain of UniProt Q9UJQ4 (whole entry, looked up): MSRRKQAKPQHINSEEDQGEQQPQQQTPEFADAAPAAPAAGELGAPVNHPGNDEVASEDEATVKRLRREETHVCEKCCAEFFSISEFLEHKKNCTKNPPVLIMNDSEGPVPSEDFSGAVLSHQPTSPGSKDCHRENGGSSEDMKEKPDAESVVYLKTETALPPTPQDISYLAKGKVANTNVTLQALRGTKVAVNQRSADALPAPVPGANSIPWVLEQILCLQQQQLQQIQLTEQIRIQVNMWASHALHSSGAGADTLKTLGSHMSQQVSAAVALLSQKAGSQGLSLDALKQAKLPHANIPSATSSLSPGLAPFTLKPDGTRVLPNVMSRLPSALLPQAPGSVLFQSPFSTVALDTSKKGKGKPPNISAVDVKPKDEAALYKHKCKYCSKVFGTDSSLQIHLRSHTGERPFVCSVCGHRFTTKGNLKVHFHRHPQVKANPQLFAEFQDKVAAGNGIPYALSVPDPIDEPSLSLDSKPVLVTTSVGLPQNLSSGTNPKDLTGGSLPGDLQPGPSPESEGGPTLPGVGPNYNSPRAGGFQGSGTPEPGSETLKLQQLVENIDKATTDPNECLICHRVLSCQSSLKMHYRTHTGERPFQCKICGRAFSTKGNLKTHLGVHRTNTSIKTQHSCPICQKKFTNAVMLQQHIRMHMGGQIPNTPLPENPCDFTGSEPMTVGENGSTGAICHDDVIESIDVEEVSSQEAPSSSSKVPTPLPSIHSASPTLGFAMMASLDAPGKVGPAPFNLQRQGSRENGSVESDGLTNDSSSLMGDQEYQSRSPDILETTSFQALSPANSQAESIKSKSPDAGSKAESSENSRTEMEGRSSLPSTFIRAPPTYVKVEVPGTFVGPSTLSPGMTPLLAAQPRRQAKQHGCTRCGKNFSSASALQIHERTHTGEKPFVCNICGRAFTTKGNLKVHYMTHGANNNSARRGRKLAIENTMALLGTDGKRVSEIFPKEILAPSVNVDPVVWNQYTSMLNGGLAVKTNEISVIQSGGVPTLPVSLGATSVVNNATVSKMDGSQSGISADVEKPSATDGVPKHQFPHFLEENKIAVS
# Method: universal PBM
# Molecule type: double-stranded DNA, one strand shown
# Matrix: in vitro
# Concentration: 600 nM
# Setting: 8-mer, flanks averaged, mean of replicates
# Direction: higher = stronger binding
Sequence,E-score
AGAGGCTG,-0.257
AAGCCGTG,-0.0572
CCTTACGA,-0.0187
GCTGAATA,0.23
AAGTTTGC,0.0518
CGTATATC,0.091
CAACCCCC,-0.216
ATGTTCGC,0.0485
ACTAAGGA,0.0874
GAAAAGCA,0.0503
ACTACGTA,0.106
GTTCCTGA,-0.0957
CATGTCGA,-0.064
AATGCTAC,0.107
ATGCATCC,-0.0786

# Study 5
# Target: CCNB2, cyclin fold, Cln2 fusion (human)
# Method: yeast growth competition, sequencing
# Matrix: yeast
# Setting: weak parent motif
# Reference: not given
# Direction: higher = stronger binding
# Starting sequence: INSM1 docking peptide (human); PKAIRKLHFEDEV; partner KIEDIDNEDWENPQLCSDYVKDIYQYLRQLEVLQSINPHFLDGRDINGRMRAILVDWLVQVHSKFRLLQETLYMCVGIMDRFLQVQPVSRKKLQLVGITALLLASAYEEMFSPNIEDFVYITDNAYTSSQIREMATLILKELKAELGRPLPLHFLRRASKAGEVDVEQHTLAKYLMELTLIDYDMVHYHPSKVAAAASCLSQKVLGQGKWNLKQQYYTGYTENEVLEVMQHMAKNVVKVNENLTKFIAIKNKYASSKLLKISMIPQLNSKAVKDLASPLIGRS
Change,normalised enrichment score
PWAIRKLHFEDEV [K2W],0.023
PKAIRKLHTEDEV [F9T],0.0543
PKAIRKRHFEDEV [L7R],0.745
PKAIRKLDFEDEV [H8D],0.297
PKAIRKLHFELEV [D11L],0.38
PKAFRKLHFEDEV [I4F],0.0672
PKAIRKLHFYDEV [E10Y],-0.0925
PKAIRKLSFEDEV [H8S],0.315
PKAIRKLHFIDEV [E10I],0.275
PKAIRKLEFEDEV [H8E],0.126
PKAIRKLHFEWEV [D11W],0.156
PKAIRKLNFEDEV [H8N],0.347
PKAIRKLTFEDEV [H8T],0.222
PKAIRGLHFEDEV [K6G],-0.116
PKAIRKLHFEPEV [D11P],0.232
PKAIRKLHFEDWV [E12W],0.0579

# Study 6
# Target: Interferon regulatory factor 7, full length, phosphomimetic (IRF7, Homo sapiens, UniProt Q92985, residues 1-503, S101K/S471D/S472D/S475D/S476D/S477D/S483D/S484D/S487D)
# Chain of UniProt Q92985 (whole entry, unmodified, looked up): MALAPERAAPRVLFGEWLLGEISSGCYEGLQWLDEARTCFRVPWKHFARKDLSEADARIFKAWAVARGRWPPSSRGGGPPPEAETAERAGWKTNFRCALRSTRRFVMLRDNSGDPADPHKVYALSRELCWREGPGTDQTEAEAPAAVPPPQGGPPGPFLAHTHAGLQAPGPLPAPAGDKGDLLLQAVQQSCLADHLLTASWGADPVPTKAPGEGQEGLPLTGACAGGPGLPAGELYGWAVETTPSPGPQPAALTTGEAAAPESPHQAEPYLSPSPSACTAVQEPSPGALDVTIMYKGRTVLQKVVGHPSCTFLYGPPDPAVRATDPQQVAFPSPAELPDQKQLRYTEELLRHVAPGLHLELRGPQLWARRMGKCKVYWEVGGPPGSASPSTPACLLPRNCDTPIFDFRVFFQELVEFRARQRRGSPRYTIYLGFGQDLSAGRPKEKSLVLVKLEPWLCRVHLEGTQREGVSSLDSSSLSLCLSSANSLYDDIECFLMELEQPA
# Method: protein-binding microarray
# Molecule type: double-stranded DNA, one strand shown
# Matrix: in vitro
# Concentration: 250 nM
# Setting: 60-bp whole probe
# Together with: salmon DNA 0.4 mg/ml
# Reference: random background probes
# Direction: higher = stronger binding
# All sequences stand within: GCCTAGCAC … GTCTTGATTCGCTTGACGCTGCTG
Sequence,log fluorescence [z-score]
TTAGGTATAGACACTGGGTTAGTGCTA,-0.33
TTAGATCACAGTATCGATTAGTGCTAG,1.26
GACGATTTCGGGTATCGGGACGTGCTA,0.701
TTAGGTTTCACTTTCCAAAAGTGCTAG,10.7
AAAGTCTTCACTCTGCTGAAGTGCTAG,-0.107
AGTGCTATACCACTCTTGCTGTGCTAG,-0.273
GATGGTTTCGGTATCGGGACGTGCTAG,11.4
TTAGGTATCCATTTCCTTTAGTGCTAG,1.15
TGAGGTCTCCTTCTCCTTTAGTGCTAG,-0.16
TCATCTCTGCTCTTTTCAACTGTGCTA,0.626
GACGATTCCAGTTTCAAGACGTGCTAG,1.14
TTCTAATTTACTTTGGTTGGGTGCTAG,0.258

# Study 7
# Target: FOS, bZIP domain (human)
# Method: DHFR protein complementation
# Matrix: yeast
# Setting: single substitutions, most at no-binding floor
# Reference: wild-type JUN-FOS pair
# Direction: higher = stronger binding
# Starting sequence: JUN, bZIP domain (human); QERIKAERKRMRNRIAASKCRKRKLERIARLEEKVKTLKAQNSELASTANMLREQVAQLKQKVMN; partner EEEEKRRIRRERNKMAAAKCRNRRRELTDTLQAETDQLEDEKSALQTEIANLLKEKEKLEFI
Change,binding fitness [natural log]
E32N,-0.297
R30A,0.243
K34W,-0.0887
T37K,-0.023
R30I,0.0513
K36G,-0.228
K39R,0.0798
L31P,-1.17
L38M,-0.303
E33N,-0.215
A40L,-0.0856
R30W,0.0102
R53K,-0.12
E32P,-1.16
Q55S,-0.236

# Study 8
# Target: Centromere-binding protein 1, full length, N-terminal tag (CBF1, Saccharomyces cerevisiae, UniProt P17106, residues 1-351)
# Chain of UniProt P17106 (whole entry, looked up): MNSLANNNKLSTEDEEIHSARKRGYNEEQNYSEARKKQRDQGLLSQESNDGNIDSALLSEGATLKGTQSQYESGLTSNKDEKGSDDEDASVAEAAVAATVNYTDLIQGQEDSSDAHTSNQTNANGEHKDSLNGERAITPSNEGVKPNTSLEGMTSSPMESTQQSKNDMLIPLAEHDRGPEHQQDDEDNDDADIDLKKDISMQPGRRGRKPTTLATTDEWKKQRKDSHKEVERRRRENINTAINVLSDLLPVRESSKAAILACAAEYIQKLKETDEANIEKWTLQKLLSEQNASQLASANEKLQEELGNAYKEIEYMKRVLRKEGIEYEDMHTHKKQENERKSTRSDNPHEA
# Method: protein-binding microarray
# Molecule type: double-stranded DNA, one strand shown
# Matrix: in vitro
# Concentration: 0.8 µM
# Setting: whole 60-bp probe, no competitor
# Direction: higher = stronger binding
# All sequences stand within: … GTCTTGATTCGCTTGACGCTGCTG
Sequence,fluorescence intensity [a.u.]
GAATAACATATTAGTGTCACGACCGCTAGCCAATAG,710
GAAACGAGAAACGCGCACGCACTTTCCACCATTTAG,514
CTATGGGTGAAGCTGCATGTGAAATGAACTGGATTC,530
GAAGTGTGAACTCTTCACATGAGAAGGGAATAATAG,589
CTACCCCGCTTTCATCATGTGAACATCTATAGATTC,1120
GAACTTCAACACTCTCACGAGTTTAATTCAAATTAG,567
CTAGGCGCAAATAGTTGCCACGTGCGAGTGCGGTTC,6100
GAAGTCGAAGGCAGAGACGTGGCACTGGCGATTTAG,474
GAAAATACTGGACATAGCATCATGAATTTTTTTTAG,530
GAACTTGAACGATTTCACCAGATGTTTGTACACTAG,493
CCTAACTACTATAAGCACGTGGGATAGCTTCGTACA,5640
GAAGAGCAGGATGATCCCGTGCCCGAACTGGATTAG,1340
CTATTGATTTAGTGTCATGAGAGTGCTCCAAATTTC,587
GAATAATGATTTCTTTTCGTGGCTTTAGAGATTTAG,479

# Repeated from above (study 7):
Change,binding fitness [natural log]
R30A,0.243
K34W,-0.0887
T37K,-0.023
R30I,0.0513
K36G,-0.228
K39R,0.0798
L31P,-1.17
L38M,-0.303
E33N,-0.215
A40L,-0.0856
R30W,0.0102
R53K,-0.12
E32P,-1.16
Q55S,-0.236
